Measurements pooled from the literature.
Compare with care: the assays were run in different laboratories. Several values in a cell are separate wells, animals, samples, runs or records. Numbers after ± are the reported error.

CC(=O)N[C@H](C(=O)N[C@H](C(=O)N[C@@H](CCCNC(=N)N)C(=O)N[C@@H](CC(N)=O)C(=O)N[C@@H](CC(=O)O)C(=O)N[C@H](C(=O)N1CCC[C@@H]1C(=O)N1CCC[C@H]1C(=O)N[C@@H](CC(=O)O)C(=O)N[C@@H](CO)C(=O)N[C@@H](CC(C)C)C(=O)N[C@@H](CC(C)C)C(=O)N[C@H](C(=O)N[C@@H](Cc1ccccc1)C(N)=O)C(C)C)C(C)C)[C@@H](C)O)C(C)C  concentration (HEK-293T; subcellular fractionation LC-MS; cytoplasmic fraction; 20 µM, 24 h): not detected
Nc1ncc(-c2ccc(C3CCCCC3)cc2)cn1  hepatic clearance (liver microsome stability; cynomolgus liver microsomes; 1 µM): 37 mL/min/kg
NCc1ccc(NC(=O)c2cc(-c3ccccc3)n(-c3ccccc3)n2)cc1  CC50 (HeLa; cell growth or viability): 38 µM
CN1CCCNC(=O)c2cccc(c2)C(=O)NCCCN(C)CCCNc2cccc3c2C(=O)c2cccc(c2C3=O)NCCC1  viability (HeLa; cell growth or viability, CCK-8; 15 µM, 48 h): 3.32%
O=C1NC2(CC2)COc2ncc(F)cc2[C@H]2COCCN2c2ccn3ncc1c3n2  polyploid cells (CHL; chromosomal aberration test; 10 µg/mL, 24 h, without S9): 0%
CC(C)C[C@@H]1NC(=O)[C@H](CO)NC(=O)[C@H](CC(=O)O)NC(=O)[C@@H]2CCCN2C(=O)[C@H]2CCCN2C(=O)[C@H](C(C)C)NC(=O)[C@H](CC(=O)O)NC(=O)[C@H](CC(N)=O)NC(=O)[C@H](CCCNC(=N)N)NC(=O)[C@H]([C@@H](C)O)NC(=O)[C@H](C(C)C)NC(=O)CCNC(=O)CCNC(=O)[C@H](Cc2ccccc2)NC(=O)[C@H](C(C)C)NC(=O)[C@H](CC(C)C)NC1=O  peptide amount per protein (HEK-293T; subcellular fractionation LC-MS; nuclear fraction; 20 µM, 24 h): not detected
Cc1onc(-c2ccc(F)cc2)c1C(=O)Nc1cccc(C(N)=O)c1  CC50 (HeLa; cell growth or viability): > 50 µM
O=C(COCC(F)F)Nc1ccc([C@H]2[C@@H](F)[C@@H](F)C[C@@H](F)[C@H]2F)cc1  hepatic clearance (liver microsome stability; rat liver microsomes; 1 µM): 17 mL/min/kg
Cc1cc(=O)c2c(O)c3c(O[C@@H]4O[C@H](CO)[C@@H](O)[C@H](O)[C@H]4O)cc(O)cc3cc2o1  cell viability (HepaRG co-cultured with HK-2; MTT; 133.33 µM, 48 h; baseline: untreated control): 53.8 ± 6.06%
COc1cc(/C=C/C=C2\SC(=S)NC2=O)ccc1O  viability (HeLa; CellTiter-Glo; 40 µM, 24 h, unit not given; baseline: untreated): 0.866 and 0.911
